Measured values from different studies.
Each numbered part is a random draw from the data of one study; scales do not carry over between parts. Values joined by “and” are separate records of one study, mostly repeats; a detail may differ.
UniProt P35968, sequence (whole entry, looked up): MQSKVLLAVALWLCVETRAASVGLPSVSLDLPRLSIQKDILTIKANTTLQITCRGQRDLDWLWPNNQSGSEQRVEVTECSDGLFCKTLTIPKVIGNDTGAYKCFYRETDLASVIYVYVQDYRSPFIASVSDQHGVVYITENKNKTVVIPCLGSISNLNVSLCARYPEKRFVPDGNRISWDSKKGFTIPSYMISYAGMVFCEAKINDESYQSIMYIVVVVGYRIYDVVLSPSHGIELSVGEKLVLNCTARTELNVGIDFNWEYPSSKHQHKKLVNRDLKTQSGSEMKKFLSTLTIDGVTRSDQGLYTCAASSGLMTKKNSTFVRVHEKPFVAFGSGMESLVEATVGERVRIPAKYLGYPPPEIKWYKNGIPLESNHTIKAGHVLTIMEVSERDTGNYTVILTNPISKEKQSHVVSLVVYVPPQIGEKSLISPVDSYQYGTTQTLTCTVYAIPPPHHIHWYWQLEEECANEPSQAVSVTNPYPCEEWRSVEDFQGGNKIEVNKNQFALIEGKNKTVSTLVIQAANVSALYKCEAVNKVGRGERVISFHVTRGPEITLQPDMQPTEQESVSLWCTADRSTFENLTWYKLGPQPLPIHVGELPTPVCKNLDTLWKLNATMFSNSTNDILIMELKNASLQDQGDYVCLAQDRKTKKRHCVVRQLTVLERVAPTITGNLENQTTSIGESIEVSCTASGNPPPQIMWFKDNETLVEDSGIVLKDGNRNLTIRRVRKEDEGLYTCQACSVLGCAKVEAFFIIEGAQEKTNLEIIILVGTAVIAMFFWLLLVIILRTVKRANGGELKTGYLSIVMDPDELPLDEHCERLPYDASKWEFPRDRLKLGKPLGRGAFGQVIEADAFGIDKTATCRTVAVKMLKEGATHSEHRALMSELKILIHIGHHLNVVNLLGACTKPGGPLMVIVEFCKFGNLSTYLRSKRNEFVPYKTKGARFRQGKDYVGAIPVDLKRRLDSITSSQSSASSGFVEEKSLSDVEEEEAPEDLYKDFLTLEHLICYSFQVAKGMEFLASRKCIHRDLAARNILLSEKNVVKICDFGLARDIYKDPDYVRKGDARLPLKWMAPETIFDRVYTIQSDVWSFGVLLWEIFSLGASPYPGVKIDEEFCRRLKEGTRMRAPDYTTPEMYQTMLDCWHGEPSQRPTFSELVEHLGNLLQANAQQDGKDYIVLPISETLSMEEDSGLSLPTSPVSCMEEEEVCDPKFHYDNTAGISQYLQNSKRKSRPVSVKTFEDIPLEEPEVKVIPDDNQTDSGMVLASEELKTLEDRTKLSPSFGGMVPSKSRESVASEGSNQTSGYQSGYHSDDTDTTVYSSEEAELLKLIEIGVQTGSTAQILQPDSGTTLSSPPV
UniProt Q16832, sequence (whole entry, looked up): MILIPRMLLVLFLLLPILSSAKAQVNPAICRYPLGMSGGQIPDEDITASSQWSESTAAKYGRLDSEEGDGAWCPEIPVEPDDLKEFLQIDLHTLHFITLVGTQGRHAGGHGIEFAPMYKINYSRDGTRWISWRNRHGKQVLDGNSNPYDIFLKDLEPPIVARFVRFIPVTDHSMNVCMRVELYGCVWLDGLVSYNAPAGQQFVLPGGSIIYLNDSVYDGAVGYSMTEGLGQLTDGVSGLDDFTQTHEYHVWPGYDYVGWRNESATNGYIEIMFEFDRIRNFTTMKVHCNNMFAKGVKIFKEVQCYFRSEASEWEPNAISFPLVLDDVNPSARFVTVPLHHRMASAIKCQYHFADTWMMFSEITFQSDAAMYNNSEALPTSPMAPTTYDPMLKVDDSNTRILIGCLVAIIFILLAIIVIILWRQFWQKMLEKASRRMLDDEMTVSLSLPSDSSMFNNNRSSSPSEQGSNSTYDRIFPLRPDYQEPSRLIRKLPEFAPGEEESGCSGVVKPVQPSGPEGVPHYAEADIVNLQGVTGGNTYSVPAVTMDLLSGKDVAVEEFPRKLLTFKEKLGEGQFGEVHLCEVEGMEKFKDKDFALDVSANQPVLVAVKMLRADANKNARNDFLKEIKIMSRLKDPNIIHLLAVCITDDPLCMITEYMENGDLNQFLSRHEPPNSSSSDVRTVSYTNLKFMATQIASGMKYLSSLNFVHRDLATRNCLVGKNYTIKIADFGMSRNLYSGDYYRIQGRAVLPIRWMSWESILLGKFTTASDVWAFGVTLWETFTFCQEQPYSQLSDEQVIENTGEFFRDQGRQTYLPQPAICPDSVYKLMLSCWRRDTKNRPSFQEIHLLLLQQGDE
UniProt P28482, sequence (whole entry, looked up): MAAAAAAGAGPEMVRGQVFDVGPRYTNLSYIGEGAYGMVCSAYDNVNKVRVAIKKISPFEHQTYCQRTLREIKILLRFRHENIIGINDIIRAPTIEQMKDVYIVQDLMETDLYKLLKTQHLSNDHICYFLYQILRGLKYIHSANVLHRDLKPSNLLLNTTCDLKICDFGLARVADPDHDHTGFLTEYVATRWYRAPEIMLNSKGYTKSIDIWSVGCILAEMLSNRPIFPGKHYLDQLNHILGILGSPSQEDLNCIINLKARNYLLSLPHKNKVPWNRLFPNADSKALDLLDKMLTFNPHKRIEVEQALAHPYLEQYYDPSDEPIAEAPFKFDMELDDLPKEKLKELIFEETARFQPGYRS
UniProt Q02750, sequence (whole entry, looked up): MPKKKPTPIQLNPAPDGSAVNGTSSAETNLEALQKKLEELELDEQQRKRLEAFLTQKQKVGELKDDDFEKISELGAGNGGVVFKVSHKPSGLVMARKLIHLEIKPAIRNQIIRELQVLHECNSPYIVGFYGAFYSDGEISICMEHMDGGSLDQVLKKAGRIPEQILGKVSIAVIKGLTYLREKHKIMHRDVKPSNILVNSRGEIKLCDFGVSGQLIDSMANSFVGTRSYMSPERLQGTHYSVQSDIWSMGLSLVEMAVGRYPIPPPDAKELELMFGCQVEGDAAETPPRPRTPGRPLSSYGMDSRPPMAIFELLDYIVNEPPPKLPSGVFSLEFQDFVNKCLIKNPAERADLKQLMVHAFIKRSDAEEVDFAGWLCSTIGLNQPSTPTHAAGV
UniProt O75676, sequence (whole entry, looked up): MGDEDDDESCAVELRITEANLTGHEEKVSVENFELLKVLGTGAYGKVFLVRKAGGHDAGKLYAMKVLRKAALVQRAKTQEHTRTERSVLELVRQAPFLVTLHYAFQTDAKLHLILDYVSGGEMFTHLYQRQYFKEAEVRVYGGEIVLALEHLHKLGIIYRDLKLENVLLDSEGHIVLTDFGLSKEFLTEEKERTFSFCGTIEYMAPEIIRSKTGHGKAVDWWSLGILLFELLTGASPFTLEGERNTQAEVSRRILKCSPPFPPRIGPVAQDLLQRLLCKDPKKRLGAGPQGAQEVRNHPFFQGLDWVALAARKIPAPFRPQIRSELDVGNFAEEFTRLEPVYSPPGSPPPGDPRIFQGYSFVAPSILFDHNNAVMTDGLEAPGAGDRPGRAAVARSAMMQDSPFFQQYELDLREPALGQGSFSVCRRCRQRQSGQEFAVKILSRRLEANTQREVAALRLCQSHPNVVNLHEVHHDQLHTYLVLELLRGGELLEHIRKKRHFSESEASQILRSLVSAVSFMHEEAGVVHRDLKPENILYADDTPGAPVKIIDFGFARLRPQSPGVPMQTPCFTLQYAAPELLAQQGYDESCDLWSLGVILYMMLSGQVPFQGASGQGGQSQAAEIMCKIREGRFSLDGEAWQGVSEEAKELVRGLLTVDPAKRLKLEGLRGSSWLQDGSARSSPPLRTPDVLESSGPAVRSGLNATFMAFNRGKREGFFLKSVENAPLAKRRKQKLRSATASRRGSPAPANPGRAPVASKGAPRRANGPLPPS
UniProt Q96L34, sequence (whole entry, looked up): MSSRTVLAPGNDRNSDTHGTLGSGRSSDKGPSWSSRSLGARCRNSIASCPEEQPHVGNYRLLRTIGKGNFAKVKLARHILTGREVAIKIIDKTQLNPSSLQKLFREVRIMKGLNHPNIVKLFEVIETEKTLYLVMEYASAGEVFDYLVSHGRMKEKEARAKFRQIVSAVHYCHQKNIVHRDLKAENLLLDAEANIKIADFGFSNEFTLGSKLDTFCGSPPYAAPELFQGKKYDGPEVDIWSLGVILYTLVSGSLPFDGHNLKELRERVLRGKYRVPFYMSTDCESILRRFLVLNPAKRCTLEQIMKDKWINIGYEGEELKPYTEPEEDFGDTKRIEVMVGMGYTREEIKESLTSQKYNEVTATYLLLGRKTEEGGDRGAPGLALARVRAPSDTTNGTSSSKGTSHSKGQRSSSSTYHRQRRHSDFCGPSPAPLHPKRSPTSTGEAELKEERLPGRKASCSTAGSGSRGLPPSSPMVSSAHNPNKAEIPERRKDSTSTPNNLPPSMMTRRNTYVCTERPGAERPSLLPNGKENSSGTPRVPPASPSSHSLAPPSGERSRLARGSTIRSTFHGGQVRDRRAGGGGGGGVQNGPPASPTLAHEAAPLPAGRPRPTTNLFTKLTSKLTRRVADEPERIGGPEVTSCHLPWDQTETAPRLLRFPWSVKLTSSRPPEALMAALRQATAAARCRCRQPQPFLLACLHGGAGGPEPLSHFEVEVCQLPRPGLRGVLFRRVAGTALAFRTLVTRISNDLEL

Set 1
SMILES: CC(C)n1cnc2c(Nc3cccc(Cl)c3)nc(NCCO)nc21
Read-out: enzyme activity
Mode: inhibitor
Tested at: 0.5 µM
Baseline: control
| target | remaining activity |
| --- | --- |
| TXK (Homo sapiens, UniProt P42681) | 78.1% |
| MAPK11 (Homo sapiens, UniProt Q15759) | 92.2% |
| PRKG2 (Homo sapiens, UniProt Q13237) | 82.7% |
| RPS6KA4 (Homo sapiens, UniProt O75676) | 83.8% |
| AKT2 (Homo sapiens, UniProt P31751) | 92.4% |
| KDR (Homo sapiens, UniProt P35968) | 103% |
| DDR2 (Homo sapiens, UniProt Q16832) | 93.3% |
| MAPK1 (Homo sapiens, UniProt P28482) | 107% |
| DCLK2 (Homo sapiens, UniProt Q8N568) | 97.8% |
| MAP2K1 (Homo sapiens, UniProt Q02750) | 92.8% |
| CLK3 (Homo sapiens, UniProt P49761) | 77.8% |
| MET (Homo sapiens, UniProt P08581) | 83.9% |
| MARK4 (Homo sapiens, UniProt Q96L34) | 88.1% |

Set 2
Cell line: mouse MPNST tumor cells
Technique: high-content immunofluorescence imaging
Item: nuclear SOX9
Tested at: 10 µM
Time: 12 h
Notes: mean of 2 replicates
Baseline: DMSO control
Direction: higher = more nuclear SOX9
| SMILES | nuclear SOX9 intensity |
| --- | --- |
| CCOC(=O)c1ncc2[nH]c3cccc(OC(C)C)c3c2c1C | 107 % of DMSO |
| CC1(C)C[C@@H]1C(=O)N/C(=C\CCCCSC[C@H](N)C(=O)O)C(=O)O | 112 % of DMSO |
| CSc1nc2cc(Cl)c(Oc3cccc(Cl)c3Cl)cc2[nH]1 | 119 % of DMSO |
| CC(C)(C)c1nc2c3cc[nH]c(=O)c3c3cc(F)ccc3c2[nH]1 | 127 % of DMSO |
| CCCCCCCN(CC)CCCC(O)c1ccc(NS(C)(=O)=O)cc1 (centres unmarked) | 98.3 % of DMSO and 114 % of DMSO and 116 % of DMSO |
| CCOc1cc(CC(=O)N[C@@H](CC(C)C)c2ccccc2N2CCCCC2)ccc1C(=O)O | 110 % of DMSO and 87 % of DMSO |
| Cc1cnc(-c2cnc(NCCNc3ccc(C#N)cn3)nc2-c2ccc(Cl)cc2Cl)[nH]1 | 54.3 % of DMSO |
| NC(=O)OCC(O)COc1ccc(Cl)cc1 (centres unmarked) | 96.4 % of DMSO |
| Cc1c(C)c2c(c(C)c1O)CCC(C)(C(=O)O)O2 (centres unmarked) | 109 % of DMSO |
| C[n+]1ccccc1/C=N/O | 92.1 % of DMSO |

Set 3
Cell line: A-375
Tested at: 100 µM
Time: 18 h
| Structure (SMILES) | viability [%] |
| --- | --- |
| COc1cccc(N(C)C(=S)Oc2ccc3c(c2)CCCC3)n1 | 94 |
| CC1(C)S[C@@H]2[C@H](NC(=O)C(C(=O)O)c3ccccc3)C(=O)N2[C@H]1C(=O)O (some centres unmarked) | 95.7 |
| CN(C)c1ccc(O)c2c1C[C@H]1C[C@H]3[C@H](N(C)C)C(O)=C(C(N)=O)C(=O)[C@@]3(O)C(O)=C1C2=O | 95.1 |
| O=S(=O)(O)c1cc(O)ccc1O | 102 |
| COc1cc2c(Oc3ccc4[nH]c(C)cc4c3F)ncnc2cc1OCCCN1CCCC1 | 9.34 |
| CCOC(=O)c1ccc(C#Cc2ccc3c(c2)C(C)(C)CCS3)nc1 | 60.9 |
| O=C1[C@H](CC[C@H](O)c2ccc(F)cc2)[C@@H](c2ccc(O)cc2)N1c1ccc(F)cc1 | 9.63 |
| CC(=O)c1ccc2c(c1)N(CCCN1CCC(CCO)CC1)c1ccccc1S2 | 9.04 |
| Clc1cccc(Cl)c1N=C1NCCN1 | 104 |
| CC(COc1ccccc1)NC(C)C(O)c1ccc(O)cc1 (centres unmarked) | 102 |

Set 4
Target: D(4) dopamine receptor (DRD4, Homo sapiens, UniProt P21917)
UniProt P21917, sequence (whole entry, looked up): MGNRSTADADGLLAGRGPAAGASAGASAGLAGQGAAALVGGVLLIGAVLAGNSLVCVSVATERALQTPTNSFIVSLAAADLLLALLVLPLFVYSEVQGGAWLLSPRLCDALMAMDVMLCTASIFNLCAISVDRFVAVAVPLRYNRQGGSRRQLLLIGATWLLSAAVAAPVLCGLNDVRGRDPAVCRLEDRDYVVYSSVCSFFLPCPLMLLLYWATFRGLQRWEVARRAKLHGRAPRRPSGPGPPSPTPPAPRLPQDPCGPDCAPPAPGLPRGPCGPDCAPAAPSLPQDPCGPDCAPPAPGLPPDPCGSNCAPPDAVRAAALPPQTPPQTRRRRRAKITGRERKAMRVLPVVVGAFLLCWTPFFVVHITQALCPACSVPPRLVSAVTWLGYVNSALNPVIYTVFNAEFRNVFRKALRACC
Read-out: binding
Technique: radioligand binding
Tested at: 10 µM
| SMILES | inhibition [%] |
| --- | --- |
| Nc1c(C(=O)NCc2ccc(C(=O)NCCCC3CCCCC3)cc2)cnn1-c1ccccc1 | -12.9 |
| Cc1cc(C)c(-n2ccn3nc(-c4cccnc4)cc23)cc1NC(=O)c1cc(C#N)cc(S(F)(F)(F)(F)F)c1 | 16.4 |
| Cc1c(N2CCCC2)nc2ccc(Br)cc2c1C(=O)NC[C@H](CCC(=O)O)c1ccccc1Cl | 1.48 |
| O=C(Nc1cccnn1)N1CCC(=Cc2cccc(Oc3ccc(C(F)(F)F)cn3)c2)CC1 | -6.93 |
| CCOCCn1cc(C(=O)Nc2ccc(-n3nc(-c4cccnc4)cc3C(F)(F)F)cn2)ccc1=O | -3.89 |
| CC(C)CC(=O)N1CCc2nc(-c3ccc(Br)cc3)nc(N(C)Cc3ccccc3)c2C1 | 7.93 |
| CN(C)C(=O)Cn1cc(-c2nc([C@@](C)(c3ccc(-c4cnc(N)nc4)cc3)C3CC3)no2)cn1 | 1.48 |
| CC(=O)N1CCC(c2ccc(C(=O)NC(=N)N)cc2C(F)(F)F)CC1 | -5.7 |

For quick reference, copied from above (set 1):
| target | remaining activity |
| --- | --- |
| PRKG2 (Homo sapiens, UniProt Q13237) | 82.7% |
| TXK (Homo sapiens, UniProt P42681) | 78.1% |
| MAP2K1 (Homo sapiens, UniProt Q02750) | 92.8% |
| KDR (Homo sapiens, UniProt P35968) | 103% |
| AKT2 (Homo sapiens, UniProt P31751) | 92.4% |
